Results gathered from unrelated publications.
Protocols differ between the studies behind these lines. ± marks the error that the study gave.
Cell line: HT-29

SMILES	assay	setting	scale	measurement	result
CC(C)c1ccc(N(C)c2ccc3c(c2)OCC[C@H]3CNc2cnccc2C(=O)O)cc1	cell growth or viability, ATP luminescence	7 days		IC50	0.037 µM
COc1c(C)c(OS(=O)(=O)c2ccccc2)c(C)c(O)c1C(=O)/C=C/c1ccccc1	SRB		relative to: normal over HT-29 IC50	selectivity index	1.09
COc1ccc(C(=O)NC23CCCC(C)(CCC4C2CC4(C)C)C3)cc1 (stereo not drawn)	cell growth or viability, CCK-8	10 µM		inhibition	< 50%
COc1c(C)c(OC(=O)c2ccc3ccccc3c2)c(C)c(O)c1C(=O)/C=C/c1ccccc1	cell growth or viability, SRB	72 h		IC50	> 50 µM
CNCCNC(=O)c1cn(C23CCCC(C)(CCC4C2CC4(C)C)C3)nn1 (stereo not drawn)	cell growth or viability, CCK-8	10 µM		inhibition	62.7%
CCCC(=O)Oc1c(C)c(OC)c2c(/C=C/c3ccccc3)c(CC)c(=O)oc2c1C	SRB		relative to: normal over HT-29 IC50	selectivity index	> 1.62
O=C(Nc1nnc2c1c(-c1ccc(Cl)cc1)nc1sc(=Cc3ccco3)c(=O)n12)c1ccccc1 (mixture of isomers)	SRB	10 µM, NCI60 single-dose screen, colon cancer	relative to: untreated	cell growth	49.2%
CC1CNCCN1C(=O)c1cn(C23CCCC(C)(CCC4C2CC4(C)C)C3)nn1 (stereo not drawn)	cell growth or viability, CCK-8	50 µM		inhibition	75.2%
COc1cccc(OC)c1-c1cc(C(=O)NC2(C(=O)O)C3CC4CC(C3)CC2C4)nn1-c1ccc(C(=O)N(C)CCOCCOCCN(C)C(=O)[C@H](CCCCNC(=O)[C@H](CC(C)C)NC(=O)C2OC2C(=O)O)NC(=O)CN2CCN(CC(=O)[O-])CCN(CC(=O)[O-])CCN(CC(=O)[O-])CC2)cc1C(C)C.[177Lu+3] (mixture of isomers)		240 min, 4 h	relative to: added activity	internalized fraction	1.18 ± 0.05%
COc1c(C)c(O)c(C(=O)C=Cc2ccccc2)c(OC)c1C	SRB		relative to: normal over HT-29 IC50	selectivity index	1.29
COc1cccc(OC)c1-c1cc(C(=O)NC2(C(=O)O)C3CC4CC(C3)CC2C4)nn1-c1ccc(C(=O)NCCNC(=O)[C@H](CCCCNC(=O)[C@H](CC(C)C)NC(=O)C2OC2C(=O)O)NC(=O)CN2CCN(CC(=O)[O-])CCN(CC(=O)[O-])CCN(CC(=O)[O-])CC2)cc1C(C)C.[177Lu+3] (mixture of isomers)		concentration not given, 120 min	relative to: added activity	internalized fraction	1.6 ± 0.11%
CN1CCCC1CS(=O)(=O)NC12CCCC(C)(CCC3C1CC3(C)C)C2 (stereo not drawn)	cell growth or viability, CCK-8	10 µM		inhibition	74%
CCN(C(=O)c1cc(F)ccc1Oc1nncnc1N1CCC2(C1)CN([C@H](CCCN(C)CCOC)C(C)C)C2)C(C)C	cell growth or viability	7 days		GI50	> 10 µM
CN1CCC(S(=O)(=O)NC23CCCC(C)(CCC4C2CC4(C)C)C3)CC1 (stereo not drawn)	cell growth or viability, CCK-8	10 µM		inhibition	82.5%
CCCCCC(=O)Oc1c(C)c(OC)c2c(c1C)OC(=O)[C@@H](CCCC)[C@]2(O)/C=C/c1ccccc1 (relative stereo)	cell growth or viability, SRB	72 h		IC50	> 50 µM
CO[C@@H](C[C@H]1C(C)=CC[C@@H]2[C@]3(C)C[C@H](O[C@@H]4O[C@@H](C)[C@H](OC(=O)c5cccc(O)c5)[C@@H](O)[C@H]4O)[C@@H](O)C(C)(C)[C@H]3CC[C@]21C)[C@H](N)C(=O)O	cell growth or viability, CCK-8	72 h		IC50	> 10 µM
CCCCCCCCCC(=O)Oc1c(C)c(OC)c2c(/C=C/c3ccccc3)c(CCCCCCCC)c(=O)oc2c1C	cell growth or viability, SRB	72 h		IC50	> 50 µM
CC12CCCC(NS(=O)(=O)c3cccc(N)c3)(C1)C1CC(C)(C)C1CC2 (stereo not drawn)	cell growth or viability, CCK-8	10 µM		inhibition	< 50%

A few entries again:
SMILES	assay	setting	scale	measurement	result
O=C(Nc1nnc2c1c(-c1ccc(Cl)cc1)nc1sc(=Cc3ccco3)c(=O)n12)c1ccccc1 (mixture of isomers)	SRB	10 µM, NCI60 single-dose screen, colon cancer	relative to: untreated	cell growth	49.2%
CC1CNCCN1C(=O)c1cn(C23CCCC(C)(CCC4C2CC4(C)C)C3)nn1 (stereo not drawn)	cell growth or viability, CCK-8	50 µM		inhibition	75.2%
